Measurements of several laboratories.
Numbered parts are unrelated; each lists some results of a single study. Changes are numbered by the printed parent chain.
Chain of UniProt P35367 (whole entry, looked up): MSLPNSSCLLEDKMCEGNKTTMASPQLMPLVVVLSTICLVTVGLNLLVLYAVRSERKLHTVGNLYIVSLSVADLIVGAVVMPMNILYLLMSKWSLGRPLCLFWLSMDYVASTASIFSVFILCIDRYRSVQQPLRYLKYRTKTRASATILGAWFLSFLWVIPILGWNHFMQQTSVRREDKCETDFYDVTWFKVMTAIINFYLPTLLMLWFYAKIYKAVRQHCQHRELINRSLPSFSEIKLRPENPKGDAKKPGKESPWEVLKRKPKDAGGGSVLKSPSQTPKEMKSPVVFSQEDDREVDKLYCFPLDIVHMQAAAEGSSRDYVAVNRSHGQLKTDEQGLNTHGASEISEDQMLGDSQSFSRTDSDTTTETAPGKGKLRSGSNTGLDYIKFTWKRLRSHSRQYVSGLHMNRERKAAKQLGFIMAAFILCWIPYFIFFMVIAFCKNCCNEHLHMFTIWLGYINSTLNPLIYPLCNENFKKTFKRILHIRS

Block 1 — target: CRIPT, C-terminal peptide; method: DHFR complementation, deep sequencing; sample: yeast; reference: wild type; reading: higher = weaker binding
Setting: single substitutions, model-inferred values
Starting sequence: ERBIN, PDZ domain 1 (human); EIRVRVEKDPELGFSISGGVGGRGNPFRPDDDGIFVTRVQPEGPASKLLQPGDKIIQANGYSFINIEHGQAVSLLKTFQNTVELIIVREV; partner TKNYKQTSV
`A58P` — result for “binding free energy change”: 3.77 kJ/mol.
For `G33R`, “binding free energy change” read 5.06 kJ/mol.
`D53N` — result for “binding free energy change”: 0.958 kJ/mol.
Under “binding free energy change”, `E67G` is recorded as 0.0431 kJ/mol.
`R38F` — result for “binding free energy change”: 0.377 kJ/mol.
For `G22D`, “binding free energy change” read -1.4 kJ/mol.
For `E1T`, “binding free energy change” read 0.449 kJ/mol.
`K47C`: “binding free energy change” 0.397 kJ/mol.

Block 2 — method: competition protein-binding microarray; form: double-stranded DNA, one strand shown; sample: in vitro; concentration: 2 µM; with: Pho4 competitor, 0.05 µM; reading: higher = stronger binding
Target: Centromere-binding protein 1, full length, His-tagged (CBF1, Saccharomyces cerevisiae, UniProt P17106, residues 1-351)
Chain of UniProt P17106 (whole entry, looked up): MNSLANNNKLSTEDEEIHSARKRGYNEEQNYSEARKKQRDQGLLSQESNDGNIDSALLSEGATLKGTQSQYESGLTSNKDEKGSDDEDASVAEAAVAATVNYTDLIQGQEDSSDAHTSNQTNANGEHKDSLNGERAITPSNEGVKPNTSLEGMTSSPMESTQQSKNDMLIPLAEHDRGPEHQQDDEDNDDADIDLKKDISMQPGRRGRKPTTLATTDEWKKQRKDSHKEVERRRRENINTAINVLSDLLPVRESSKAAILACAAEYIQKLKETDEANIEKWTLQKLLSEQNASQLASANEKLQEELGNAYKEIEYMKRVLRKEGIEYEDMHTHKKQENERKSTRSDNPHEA
Setting: whole 60-bp probe, lowest competitor level
`CCGCAAGTATGCTGTCATGTGTGCTTAGCAATTACGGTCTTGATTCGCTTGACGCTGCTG` gave a fluorescence intensity of 247 a.u.
`GGGCTGGATAGCCATCAGGTGCTGCACAGATTACTAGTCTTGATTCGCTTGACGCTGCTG` has a fluorescence intensity of 108 a.u.
For `CTAACGAAGGTTTCACACGTGTTTTACAAGCCAAGTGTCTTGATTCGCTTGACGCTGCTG`, the fluorescence intensity was 1170 a.u.
The fluorescence intensity of `TGCAAGAGAAAAAGTTGCGTGCGATACTGCCTAGGAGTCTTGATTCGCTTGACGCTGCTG` is reported as 71.3 a.u.
For `TATGGGTTGTGAAGTCACGTGGTTTGGGTTCAAATCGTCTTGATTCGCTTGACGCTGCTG`, the fluorescence intensity was 13300 a.u.
For `CTTTCCCGATCTTGTCATGTGGGTGTAGCACATTTGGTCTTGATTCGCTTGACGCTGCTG`, the fluorescence intensity was 182 a.u.
`TCATTAAAAACGCTTCACGTGATGGTTACTTGCATAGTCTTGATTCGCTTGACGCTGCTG` has a fluorescence intensity of 3550 a.u.
For `AATGATATCACCAGTACCGTGACGGACATCAAACTCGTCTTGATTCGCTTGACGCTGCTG`, the fluorescence intensity was 126 a.u.

Block 3 — method: protein-binding microarray; form: double-stranded DNA, one strand shown; sample: in vitro; concentration: not given; reading: higher = stronger binding
Target: Max-binding protein MNT, bHLH-zipper, MAX partner unstated (MNT, Homo sapiens, UniProt Q99583, residues 220-300)
Setting: k-mer, scored over probes, only values ≥0.25
Construct (chain): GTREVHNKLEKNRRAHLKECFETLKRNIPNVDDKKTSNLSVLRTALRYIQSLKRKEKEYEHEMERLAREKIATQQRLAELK
`CCGTGCTC` has an E-score of 0.252.
With `AAACGCGT` the E-score was 0.27.
`CATGCTGG` has an E-score of 0.412.
`GTGCACAC` has an E-score of 0.304.
With `CGTGTCGC` the E-score was 0.355.
The E-score of `ATAACCAC` is reported as 0.266.
With `CCATGCCG` the E-score was 0.388.
For `CATCGTGC`, the E-score was 0.33.

Mixed results
C[C@H](c1ccnc(Nc2nc3ccc(-c4cc(N(C)C)ncn4)cc3[nH]2)c1)N1CCN(C(=O)CC(F)(F)F)CC1 has an inhibition of 35% (Histamine H1 receptor (HRH1, Homo sapiens, UniProt P35367); ligand displacement; 10 µM).

For quick reference, copied from above (block 3):
`CATGCTGG` has an E-score of 0.412.
`GTGCACAC` has an E-score of 0.304.
